Earlier results as cited in several papers.
Protocols differ between the studies behind these lines. In brackets after ≈: the same amount, converted by molar mass.
Chain of UniProt Q8NE63 (whole entry, looked up): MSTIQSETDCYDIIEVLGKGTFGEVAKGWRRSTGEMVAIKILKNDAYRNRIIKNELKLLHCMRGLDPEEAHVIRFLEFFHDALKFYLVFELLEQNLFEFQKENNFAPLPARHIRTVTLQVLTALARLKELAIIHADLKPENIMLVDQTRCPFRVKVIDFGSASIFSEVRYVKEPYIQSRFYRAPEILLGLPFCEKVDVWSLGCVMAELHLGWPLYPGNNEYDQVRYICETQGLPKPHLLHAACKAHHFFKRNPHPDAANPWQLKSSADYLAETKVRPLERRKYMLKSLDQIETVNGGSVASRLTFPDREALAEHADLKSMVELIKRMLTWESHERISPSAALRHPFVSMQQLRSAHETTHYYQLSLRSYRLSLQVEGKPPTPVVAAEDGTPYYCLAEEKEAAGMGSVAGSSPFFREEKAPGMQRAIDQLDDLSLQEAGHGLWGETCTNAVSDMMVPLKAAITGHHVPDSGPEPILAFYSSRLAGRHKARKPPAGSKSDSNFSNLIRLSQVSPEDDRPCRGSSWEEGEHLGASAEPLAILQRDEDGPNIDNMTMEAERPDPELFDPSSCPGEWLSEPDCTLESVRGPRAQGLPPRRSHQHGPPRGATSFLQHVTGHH

SMILES | tested on | assay | test system | conditions | scale | endpoint | value
CC(C)(O/N=C(\C(=O)N[C@@H]1C(=O)N2C(C(=O)[O-])=C(C[n+]3ccccc3)CS[C@H]12)c1csc(N)n1)C(=O)O | Escherichia coli | – | clinical isolate RKI-No_525/16 | – | – | MIC | ≤ 2 µg/mL
CC[C@H](C)CCCCC(=O)N[C@@H](CCN)C(=O)N[C@H](C(=O)N[C@@H](CCN)C(=O)N[C@H]1CCNC(=O)[C@H]([C@@H](C)O)NC(=O)[C@H](CCN)NC(=O)[C@H](CCN)NC(=O)[C@H](CC(C)C)NC(=O)[C@@H](CC(C)C)NC(=O)[C@H](CCN)NC1=O)[C@@H](C)O | Escherichia coli | – | ATCC BAA-2469 | – | – | MIC | 0.125 µg/mL (≈ 0.107 µM)
Oc1ccc(-c2nc(-c3ccc(OC4CCCC4)cc3)no2)cc1 | Escherichia coli | – | ATCC 25922 | – | – | MIC | > 128 µg/mL
NC[C@H]1O[C@H](O[C@H]2[C@H](O)[C@@H](O[C@H]3O[C@H](CO)[C@@H](O)[C@H](N)[C@H]3O)[C@H](N)C[C@@H]2N)[C@H](N)C[C@@H]1O | Escherichia coli | – | ATCC BAA-2469 | – | – | MIC | 1020 µg/mL (≈ 2190 µM)
CNC(C)C1CCC(N)C(OC2C(N)CC(N)C(OC3OCC(C)(O)C(NC)C3O)C2O)O1 (stereo not shown) | Escherichia coli | – | clinical isolate RKI-No_443/16 | – | – | MIC | 4 µg/mL (≈ 8.38 µM)
CO[C@H]1/C=C/O[C@@]2(C)Oc3c(C)c(O)c4c(O)c(c(/C=N/N5CCN(C)CC5)c(O)c4c3C2=O)NC(=O)/C(C)=C\C=C\[C@H](C)[C@H](O)[C@@H](C)[C@@H](O)[C@@H](C)[C@H](OC(C)=O)[C@@H]1C | Escherichia coli | – | – | – | – | MIC | 4 µg/mL (≈ 4.86 µM)
CC1(C)S[C@@H]2[C@H](NC(=O)[C@H](N)c3ccccc3)C(=O)N2[C@H]1C(=O)O | Escherichia coli | – | clinical isolate RKI-No_314/16 | – | – | MIC | > 16 µg/mL
CCN1CCN(c2cc3c(cc2F)c(=O)c(C(=O)O)cn3C2CC2)CC1 | Escherichia coli | – | – | – | – | MIC | 16 µg/mL (≈ 44.5 µM)
CN(C)c1cc(NC(=O)CNC(C)(C)C)c(O)c2c1C[C@H]1C[C@H]3[C@H](N(C)C)C(O)=C(C(N)=O)C(=O)[C@@]3(O)C(O)=C1C2=O | Escherichia coli | – | ATCC 25922 | – | – | MIC | 0.03 to 0.25 µg/mL (≈ 0.0512 to 0.427 µM)
COc1ccc2cc3[n+](cc2c1OC)CCc1cc2c(cc1-3)OCO2 | Escherichia coli | – | – | – | – | MIC | 512 µg/mL
Nc1cc(C(F)(F)F)c(-c2nc(N3CCOCC3)nc(N3CCOCC3)n2)cn1 | HIPK4 (Homo sapiens, UniProt Q8NE63) | enzyme activity | – | 10 µM | baseline: untreated | remaining activity | 86%
CCN1CCN(C(=O)N[C@@H](C(=O)N[C@@H]2C(=O)N3[C@@H]2SC(C)(C)[C@@H]3C(=O)O)c2ccccc2)C(=O)C1=O | Escherichia coli | – | ATCC BAA-2469 | – | – | MIC | 1020 µg/mL (≈ 1980 µM)
CS(=O)(=O)c1ccc([C@@H](O)[C@@H](CF)NC(=O)C(Cl)Cl)cc1 | Escherichia coli | – | – | – | – | MIC | 2 µg/mL (≈ 5.58 µM)
